# Measurements of several laboratories.
# ± gives the spread as reported.
SMILES,test,system,conditions,how to read,endpoint,result
Cc1n[nH]c(C)c1CCCOc1cc(OCCCCCCNCCOCCOCCn2cc(CNc3ccc(C(=O)O)cc3)nn2)cc(C(=O)O)c1,,aqueous buffer,"72 (unit not given), pH 7.4, 37 °C",,solubility,≥ 200 µM
C[C@]12COc3ccc(OCc4ccccc4)cc3[C@H]1CCN2,,PBS,"2 h, pH 7.4",,solubility,263 µM
C=CCN1CCC23c4c5ccc(OC(=O)c6ccc(NCc7cn(CCCCCCCCCCCC)nn7)cc6)c4OC2C(=O)CCC3(O)C1C5 (stereo not shown),,aqueous buffer,"72 (unit not given), pH 7.4, 37 °C",,solubility,0.3 µM
Cc1cc(=O)oc2cc(NC(=O)OCc3cc(C(C)C)c(N=[N+]=[N-])c(C(C)C)c3)ccc12,HPLC peak area,PBS with 2% DMSO,0.2 mM,baseline: PBS over DMSO,solubility ratio,0.96
O=C(OCc1ccc(F)cc1)N(Cc1cn(-c2cc3ccc(O)cc3oc2=O)nn1)[c-]1cccc1.[Fe+2].c1cc[cH-]c1,absorbance,PBS,"pH 7.4, 1% DMSO",,solubility,113 ± 11 µM
CCCCC(CC)COC(=O)CC(C(=O)OCC(CC)CCCC)S(=O)(=O)O.COC(=O)Nc1nc2cc(C(=O)c3ccc(F)cc3)ccc2[nH]1 (stereo not shown),,buffer,"24 h, pH 1.2, room temperature, equilibrium",,solubility,< 1 µg/mL
NC(=O)c1cc(-c2ccsc2)ccc1OCCc1cc(F)cc(F)c1,,PBS,"30 (unit not given), pH 7.4",,solubility,< 12 µM
CC1CCC2C(C)C(OC(=O)CCC(=O)N3CCC(Nc4ccc(S(=O)(=O)NC(=O)c5ccc(N6CCN(CC7=C(c8ccc(Cl)cc8)CC(C)(C)CC7)CC6)cc5Oc5cnc6[nH]ccc6c5)cc4[N+](=O)[O-])CC3)OC3OC4(C)CCC1C32OO4 (stereo not shown),,,,,solubility,1.33 µg/mL
CSCC[C@H](NC(=O)[C@H](CCC(=O)O)NC(=O)[C@H](Cc1ccc(O)cc1)NC(=O)[C@@H](NC(=O)[C@H](CC(C)C)NC(=O)[C@H](CC(=O)O)NC(=O)[C@H](CC(C)C)NC(C)=O)[C@@H](C)O)C(=O)N[C@@H](CC(C)C)C(=O)N[C@@H](CO)C(=O)N[C@@H](CC(C)C)C(=O)N[C@@H](CCC(N)=O)C(=O)N[C@@H](CCC(N)=O)C(=O)N[C@H](C(=O)N[C@H](C(=O)N[C@@H](CCCCN)C(=O)N[C@@]1(C)CCCC=CCCC[C@@](C)(C(=O)N[C@@H](Cc2ccc(O)cc2)C(N)=O)NC(=O)[C@H](CCC(=O)O)NC(=O)[C@H](CC(N)=O)NC(=O)[C@H](CC(C)C)NC1=O)C(C)C)C(C)C,,,"concentration not given, 24 (unit not given)",,solubility,410 ± 100 µg/mL
Cn1ccc([C@H](CO)Nc2nc(N3C[C@@H]4C[C@H]3CO4)c3cc(-c4ccccc4)oc3n2)n1,,,,,solubility,380 µM
NC1CCN(C(=O)Oc2ccc(C3CCCC4(C3)OOC3(O4)C4CC5CC(C4)CC3C5)cc2)CC1 (racemic),,PBS,"pH 7.4, formate salt",,solubility,3.5 to 11.5 µM
NC(=O)c1cc(-c2ccoc2)ccc1OCCc1cccc(F)c1,,PBS,"30 (unit not given), pH 7.4",,solubility,12 µM
C[C@@H](Oc1ccc2c(c1)[C@H]1CCN[C@@]1(C)CO2)c1ccccc1,,PBS,"2 h, pH 7.4",,solubility,273 µM

# Some of these lines once more:
SMILES,test,system,conditions,how to read,endpoint,result
NC1CCN(C(=O)Oc2ccc(C3CCCC4(C3)OOC3(O4)C4CC5CC(C4)CC3C5)cc2)CC1 (racemic),,PBS,"pH 7.4, formate salt",,solubility,3.5 to 11.5 µM
